# Assay results pooled from the literature.
# Parts stem from different laboratories: compare values within a part only. Positions count from the first letter of the parent shown.

# Series 1 — method: protein binding microarray; molecule type: double-stranded DNA, one strand shown; matrix: in vitro; tested at: not given; reference: not given; reading: higher = stronger binding
# Target: Histone acetyltransferase KAT6A, winged helix 1, GST fusion (KAT6A, Homo sapiens, UniProt Q92794, residues 1-85)
# Setting: 8-mer, flanks averaged, mean of 2 arrays, mostly near background
# Target sequence (chain): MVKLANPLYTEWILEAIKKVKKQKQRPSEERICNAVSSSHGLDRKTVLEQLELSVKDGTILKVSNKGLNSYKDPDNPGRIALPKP
Strand,E-score
GCAGTGCA,-0.146
CAGTTAAG,-0.107
CTCTTATC,-0.149
AGACAAGG,-0.0356
CAGTAAGA,-0.112
CTTTCATA,-0.0471
ACGACACT,-0.153
AACTGATA,-0.052
CATTTTTA,-0.0385
AGACCTCA,-0.136
AAGAAATC,-0.317
TCATTACA,0.086
AAGGACCA,-0.149
ATGGAATG,-0.0285
ACAGCCTC,-0.12
AGCCCCCA,-0.198
GACTAGAA,-0.152
ATCCTGGA,-0.211
GCTACGAC,0.155
AAGAATTA,-0.0656
CCCAATTA,-0.13
ACTCAAGG,-0.193
GGCTGCTA,-0.0152
CAACAGCG,0.18
AAGGTGTG,-0.181

# Series 2 — method: competition protein-binding microarray; molecule type: double-stranded DNA, one strand shown; matrix: in vitro; tested at: 2 µM; together with: Pho4 competitor, 0.05 µM; reading: higher = stronger binding; constant ends, left off below: … GTCTTGATTCGCTTGACGCTGCTG
# Target: Centromere-binding protein 1, full length, His-tagged (CBF1, Saccharomyces cerevisiae, UniProt P17106, residues 1-351)
# UniProt P17106, sequence (whole entry, looked up): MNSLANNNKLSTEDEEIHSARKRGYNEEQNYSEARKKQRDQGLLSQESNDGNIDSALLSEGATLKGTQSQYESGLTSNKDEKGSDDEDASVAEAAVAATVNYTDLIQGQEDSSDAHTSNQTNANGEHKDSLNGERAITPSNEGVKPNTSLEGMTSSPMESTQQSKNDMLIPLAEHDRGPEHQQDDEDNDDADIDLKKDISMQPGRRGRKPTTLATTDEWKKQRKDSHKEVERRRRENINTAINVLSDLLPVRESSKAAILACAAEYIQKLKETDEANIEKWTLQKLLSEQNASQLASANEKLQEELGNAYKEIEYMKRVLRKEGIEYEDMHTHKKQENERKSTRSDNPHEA
# Setting: whole 60-bp probe, lowest competitor level
Strand,fluorescence intensity [a.u.]
AAAGCGGTAATTTGGCCAGTGGGTGCAGATATCTAT,60.6
TAACTACCGCCCTAGTTCGTGCTTTCATTTTTTTGT,71
TCTCTGGCCTCCCATCACGTTACTTTATTACCCGGA,563
TGATCGCGCAGGATGGGACAATTAAACGATCTTTGC,71.8
TTCTTGGAGTCGTAGAACATGACAACCGGGGGAGCA,67.4
AAATTACTAAGTTGTCACGGGACTTACCCCGTATGA,1620
CTTTCCCGATCTTGTACCGTGGGTGTAGCACATTTG,62.8
ATGAAGTTATTTCCAATCGTGCCAGTGAGATCCTAG,78.8
GACTCCATCTGGGCACAACTGGGTTAGTGGTCAAGG,54.5
CTAACGAAGGTTTGCTATGTGGGTGACAAGCCAAGT,76.1
CTTTCTCCCATTCCGCACGTGTCTGCACAAGGCTGG,1290
TTAGAATCGCTTTGTCACGTTTTTTTTTATTTCTTG,1300
CATAGATCGCACCAGCGCGTGGGTATCTTTCATTAT,70.8
AAATTACTAAGTTGCGGCGTGGGTGACGCCGTATGA,62.4
TTGCAAAAAAAGAATGGCGTGGGTAGGGGCGATTAT,66.6
CTTTCCCGATCTTGTCACCTAACTTTAGCACATTTG,82.7
GCCCCAGGTTAGGACCACGTGGGTAAGAAGATTTCC,933
CGGGGTTAAGTTTGTCACGGCACTTGCTTGCAGCAG,90.8
AAAGCGGTAATTTGTGCTGTGGGTGCAGATATCTAT,75.8

# Series 3 — method: RNAcompete; molecule type: RNA; matrix: in vitro; tested at: 20 nM; setting: 7-mer, probes averaged, single round; reference: mean of 7-mers; reading: higher = stronger binding
# Target: PABPC1L2, full length, GST fusion (mouse, UniProt A0ABA7IW68)
# Construct (chain): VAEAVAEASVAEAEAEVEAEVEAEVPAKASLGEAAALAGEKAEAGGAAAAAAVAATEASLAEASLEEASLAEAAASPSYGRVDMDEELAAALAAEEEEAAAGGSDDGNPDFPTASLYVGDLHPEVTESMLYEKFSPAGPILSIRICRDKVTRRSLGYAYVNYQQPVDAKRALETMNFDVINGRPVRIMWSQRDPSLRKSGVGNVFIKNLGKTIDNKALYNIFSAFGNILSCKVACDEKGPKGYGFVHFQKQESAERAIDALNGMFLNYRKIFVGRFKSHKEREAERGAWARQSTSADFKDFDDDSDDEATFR
Strand,7-mer Z-score
CGGCCAC,-0.108
GUGAGGU,-0.171
GACAUAG,-0.0428
GAGGUCU,-0.0844
GGUAUCA,-0.0554
GGCCUUC,-0.325
UAACCAG,-0.0808
ACCCAAC,-0.277
CCCGGGU,-0.238
AGCCGGG,0.144
GUACCGC,-0.213
CAUCCCU,-0.327
AGAAUAG,0.0406
GCUGCCA,-0.0409
ACGCGAC,-0.0373
CUCAGUA,-0.173
GAUUGAC,-0.15
CUGACGC,-0.383
GGUCAGU,-0.106
UAUGAUA,-0.0971
GGCGGGC,0.36

# Series 4 — target: CCNE2, cyclin fold, Cln2 fusion (human); method: yeast growth competition, sequencing; matrix: yeast; setting: weak parent motif; reference: not given; reading: higher = stronger binding
# Starting sequence: SAMHD1 docking peptide (human); ASKSRVQLFKDDP; partner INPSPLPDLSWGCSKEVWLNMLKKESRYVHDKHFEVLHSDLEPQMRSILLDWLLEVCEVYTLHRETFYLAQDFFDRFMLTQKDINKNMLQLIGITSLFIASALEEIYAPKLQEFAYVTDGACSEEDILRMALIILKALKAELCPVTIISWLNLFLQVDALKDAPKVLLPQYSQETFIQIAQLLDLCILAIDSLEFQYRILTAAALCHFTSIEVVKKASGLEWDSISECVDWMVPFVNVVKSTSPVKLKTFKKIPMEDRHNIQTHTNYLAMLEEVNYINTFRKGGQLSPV
Variant,normalised enrichment score
D11Q,0.0468
V6L,0.185
L8T,-0.101
K10G,0.189
K10V,-0.0537
Q7N,0.292
S4M,0.0894
S4N,0.293
V6Q,-0.475
Q7W,0.435
S2Y,0.198
S4F,0.53
D12P,0.231
V6H,-0.0909
D11Y,0.611
R5G,0.282
R5L,-0.351
K3L,0.329
K3C,-0.19

# Series 5 — method: DHFR PCA, deep sequencing; matrix: yeast; together with: (+)-ABA 0.11 µM; reference: wild-type fitted maximum; reading: higher = stronger binding
# Target: ABI1, truncated, D143A, DHFR fusion (Arabidopsis thaliana)
# Setting: methotrexate growth selection, single substitutions
# Starting sequence: PYL1, truncated, DHFR fusion (Arabidopsis thaliana); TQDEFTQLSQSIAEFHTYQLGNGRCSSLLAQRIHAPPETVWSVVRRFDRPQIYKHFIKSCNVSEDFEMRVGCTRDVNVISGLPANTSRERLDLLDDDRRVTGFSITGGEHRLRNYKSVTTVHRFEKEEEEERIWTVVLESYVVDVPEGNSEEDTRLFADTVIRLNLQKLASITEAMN
Variant,relative binding score
N85S,59.4%
I52V,53.6%
D95L,-4.63%
S63L,5.95%
V62N,-3.45%
E152Q,21.1%
L138S,1.48%
V100H,-9.17%
V118T,31.3%
R74Q,-1.94%
E127L,33.5%
Q167W,12.8%

# Repeated from above (series 5):
Variant,relative binding score
N85S,59.4%
I52V,53.6%
D95L,-4.63%
S63L,5.95%
V62N,-3.45%
E152Q,21.1%
L138S,1.48%
V100H,-9.17%
V118T,31.3%
R74Q,-1.94%
E127L,33.5%
Q167W,12.8%
